Experimental data of several laboratories.
Protocols differ between the studies behind these lines.
Method: steady-state kinetics
B1: enzyme (Candida albicans, UniProt A0A1D8PHX1); chain MISIIQNGISQLSSVSGLDEANLKILICTLLSFPFGIIFKRLPDHDYTLKNIYNVAVSCFYVFGICDLRFGISTLLISATGSYFITRYVRTKSMPWINFLFLMIHMAYSHFHLQFFKEYDPKSIDITGAQMILVMKLSAFGWNIHDGKQPRSTLNDFNKARAITKHPNVLPYIGYVFFYASLLTGPAFDYADYDKFIHGTLFDDVPQDKRPGKNKRRIPRSGVQAFKKFSLGFFWAFLLLQSDKFVTMEYMFSPEFVQYHGLFYRIIYMWILGFTFRLKYYTIWTIAEGACILCGIGYNGVDPETGEFKWNRVQNIDPWSFETGQNVHACLEAWNQNTNIWLKNYVYLRVAKPGKKPGFKSTIFTFTTSAFWHGTRPGYYLTFVVGALMQTVGKYYRRNFRPIFLEADGKTPKPTKIVYDFVCWVNTQLAFGFFVQPFVILGFTKSLECWATVYYWLLWVIAISFFAFSGPFAKSVSKFFKSLQPSYREQQRKSREDKYKLNNEEASIVEQAVGAKLGQDYDIPALGLPPFDVFTDFDQTEVDHDIQHLRKAWTSFRGRRGSITENDFDGLKDAYNNFTNEINDIFNTKKEEFKKEKLNKQN
B2: onr (Enterobacter cloacae, UniProt P71278); chain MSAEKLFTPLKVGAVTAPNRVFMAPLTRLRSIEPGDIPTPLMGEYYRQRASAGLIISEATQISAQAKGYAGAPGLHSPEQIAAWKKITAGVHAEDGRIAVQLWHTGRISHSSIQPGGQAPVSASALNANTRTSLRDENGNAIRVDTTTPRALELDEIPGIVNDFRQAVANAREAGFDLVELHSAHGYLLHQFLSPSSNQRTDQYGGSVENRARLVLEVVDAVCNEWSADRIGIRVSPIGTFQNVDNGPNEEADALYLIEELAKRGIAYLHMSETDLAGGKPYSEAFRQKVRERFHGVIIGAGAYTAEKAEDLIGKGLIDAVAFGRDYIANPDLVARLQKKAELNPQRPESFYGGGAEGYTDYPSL
B3: YeiR (Escherichia coli, UniProt P33030); chain MTRTNLITGFLGSGKTTSILHLLAHKDPNEKWAVLVNEFGEVGIDGALLADSGALLKEIPGGCMCCVNGLPMQVGLNTLLRQGKPDRLLIEPTGLGHPKQILDLLTAPVYEPWIDLRATLCILDPRLLLDEKSASNENFRDQLAAADIIVANKSDRTTPESEQALQRWWQQNGGDRQLIHSEHGKVDGHLLDLPRRNLAELPASAAHSHQHVVKKGLAALSLPEHQRWRRSLNSGQGYQACGWIFDADTVFDTIGILEWARLAPVERVKGVLRIPEGLVRINRQGDDLHIETQNVAPPDSRIELISSSEADWNALQSALLKLRLATTA
B4: Msh2/Msh3 (Saccharomyces cerevisiae); chain 1 MSSTRPELKFSDVSEERNFYKKYTGLPKKPLKTIRLVDKGDYYTVIGSDAIFVADSVYHTQSVLKNCQLDPVTAKNFHEPTKYVTVSLQVLATLLKLCLLDLGYKVEIYDKGWKLIKSASPGNIEQVNELMNMNIDSSIIIASLKVQWNSQDGNCIIGVAFIDTTAYKVGMLDIVDNEVYSNLESFLIQLGVKECLVQDLTSNSNSNAEMQKVINVIDRCGCVVTLLKNSEFSEKDVELDLTKLLGDDLALSLPQKYSKLSMGACNALIGYLQLLSEQDQVGKYELVEHKLKEFMKLDASAIKALNLFPQGPQNPFGSNNLAVSGFTSAGNSGKVTSLFQLLNHCKTNAGVRLLNEWLKQPLTNIDEINKRHDLVDYLIDQIELRQMLTSEYLPMIPDIRRLTKKLNKRGNLEDVLKIYQFSKRIPEIVQVFTSFLEDDSPTEPVNELVRSVWLAPLSHHVEPLSKFEEMVETTVDLDAYEENNEFMIKVEFNEELGKIRSKLDTLRDEIHSIHLDSAEDLGFDPDKKLKLENHHLHGWCMRLTRNDAKELRKHKKYIELSTVKAGIFFSTKQLKSIANETNILQKEYDKQQSALVREIINITLTYTPVFEKLSLVLAHLDVIASFAHTSSYAPIPYIRPKLHPMDSERRTHLISSRHPVLEMQDDISFISNDVTLESGKGDFLIITGPNMGGKSTYIRQVGVISLMAQIGCFVPCEEAEIAIVDAILCRVGAGDSQLKGVSTFMVEILETASILKNASKNSLIIVDELGRGTSTYDGFGLAWAIAEHIASKIGCFALFATHFHELTELSEKLPNVKNMHVVAHIEKNLKEQKHDDEDITLLYKVEPGISDQSFGIHVAEVVQFPEKIVKMAKRKANELDDLKTNNEDLKKAKLSLQEVNEGNIRLKALLKEWIRKVKEEGLHDPSKITEEASQHKIQELLRAIANEPEKENDNYLKYIKALLL; chain 2 MAGQPTISRFFKKAVKSELTHKQEQEVAVGNGAGSESICLDTDEEDNLSSVASTTVTNDSFPLKGSVSSKNSKNSEKTSGTSTTFNDIDFAKKLDRIMKRRSDENVEAEDDEEEGEEDFVKKKARKSPTAKLTPLDKQVKDLKMHHRDKVLVIRVGYKYKCFAEDAVTVSRILHIKLVPGKLTIDESNPQDCNHRQFAYCSFPDVRLNVHLERLVHHNLKVAVVEQAETSAIKKHDPGASKSSVFERKISNVFTKATFGVNSTFVLRGKRILGDTNSIWALSRDVHQGKVAKYSLISVNLNNGEVVYDEFEEPNLADEKLQIRIKYLQPIEVLVNTDDLPLHVAKFFKDISCPLIHKQEYDLEDHVVQAIKVMNEKIQLSPSLIRLVSKLYSHMVEYNNEQVMLIPSIYSPFASKIHMLLDPNSLQSLDIFTHDGGKGSLFWLLDHTRTSFGLRMLREWILKPLVDVHQIEERLDAIECITSEINNSIFFESLNQMLNHTPDLLRTLNRIMYGTTSRKEVYFYLKQITSFVDHFKMHQSYLSEHFKSSDGRIGKQSPLLFRLFSELNELLSTTQLPHFLTMINVSAVMEKNSDKQVMDFFNLNNYDCSEGIIKIQRESESVRSQLKEELAEIRKYLKRPYLNFRDEVDYLIEVKNSQIKDLPDDWIKVNNTKMVSRFTTPRTQKLTQKLEYYKDLLIRESELQYKEFLNKITAEYTELRKITLNLAQYDCILSLAATSCNVNYVRPTFVNGQQAIIAKNARNPIIESLDVHYVPNDIMMSPENGKINIITGPNMGGKSSYIRQVALLTIMAQIGSFVPAEEIRLSIFENVLTRIGAHDDIINGDSTFKVEMLDILHILKNCNKRSLLLLDEVGRGTGTHDGIAISYALIKYFSELSDCPLILFTTHFPMLGEIKSPLIRNYHMDYVEEQKTGEDWMSVIFLYKLKKGLTYNSYGMNVAKLARLDKDIINRAFSISEELRKESINEDALKLFSSLKRILKSDNITATDKLAKLLSLDIH
B5: Nudt8 (Mus musculus, UniProt Q9CR24); chain MLPDGLSAEDEQRCRQLLARTTARLRSRPAAAAVLVPLCLVRGVPALLYTLRSSRLVGRHKGEVSFPGGKCDPDDQDVIHTALRETQEELGLEVPKEHVWGVLQPVYDREKATIVPVLANVGPLDLQSLRPNLEEVDEVFEMSLAHLLQTQNQGYTHFCQGGHFSYTLPVFLHGPHRVWGLTAVITELTLKLLAPGFYQPSLAVPELPRG
B6: cyc1 F332A (Streptomyces coelicolor, UniProt Q9K499); chain MHAFPHGTTATPTAIAVPPSLRLPVIEAAFPRQLHPYWPKLQETTRTWLLEKRLMPADKVEEYADGLCYTDLMAGYYLGAPDEVLQAIADYSAWFFVWDDRHDRDIVHGRAGAWRRLRGLLHTALDSPGDHLHHEDTLVAGFADSVRRLYAFLPATWNARFARHFHTVIEAYDREFHNRTRGIVPGVEEYLELRRLTFAHWIWTDLLEPSSGCELPDAVRKHPAYRRAALLSQEFAAWYNDLCSLPKEIAGDEVHNLGISLITHHSLTLEEAIGEVRRRVEECITEFLAVERDALRFADELADGTVRGKELSGAVRANVGNMRNWFSSVYWAHHESGRYMVDSWDDRSTPPYVNNEAAGEK
B7: anthranilate synthase (Streptomyces venezuelae, UniProt O30589); chain MDLSRLLDPSCPPFALLRRRTPGRDHDTVEVLIGRVHEAERLAELPVGPLPALALVPFRQIRERGFDVRDDGTPLSVLVAEETHTLPLAEALDRLPAHDVTVEDGGFDVSDEEYAGIVRRVIDEEIGSGEGANFVIRRTYTGEIPGFGRADALALFRRLLAGERGAYWTFVVHTGDRTLVGASPEVHVRMSGGTVVMNPISGTYRYPAGAAPTAEGLLAFLADRKETEELSMVVDEELKMMCTVGDMGGVVIGPRLKEMAHLAHTEYELRGRSSLDVREVLRETMFAATVTGSPVQNACRVIERHEVGGRGYYAGALALLGTDENGAQSLDSPILIRTADIAADGHLRVPVGATLVRHSDPAGEVAETHAKAAGVLTALGVREGRPAGGPAPAPTALADDPRVRAALDARRADLAPFWLRMQVRSAELSGHALVIDAEDTFTAMLAHVLRSSGLDVSVLRYDEPGLRELALAHEGPVVLGPGPGNPSDAADPKMRFLRALTADLVRDHRHGLLGVCLGHELIAAELGLEIVRKRTPFQGAQMRIDLFGQERTVGFYNSFTARCDERTATELALHRIEVSRDAETGEVHALRGPGFAGVQFHPESVLTTDGAALTASLLAGVLV
UniProt P06757, sequence (whole entry, looked up): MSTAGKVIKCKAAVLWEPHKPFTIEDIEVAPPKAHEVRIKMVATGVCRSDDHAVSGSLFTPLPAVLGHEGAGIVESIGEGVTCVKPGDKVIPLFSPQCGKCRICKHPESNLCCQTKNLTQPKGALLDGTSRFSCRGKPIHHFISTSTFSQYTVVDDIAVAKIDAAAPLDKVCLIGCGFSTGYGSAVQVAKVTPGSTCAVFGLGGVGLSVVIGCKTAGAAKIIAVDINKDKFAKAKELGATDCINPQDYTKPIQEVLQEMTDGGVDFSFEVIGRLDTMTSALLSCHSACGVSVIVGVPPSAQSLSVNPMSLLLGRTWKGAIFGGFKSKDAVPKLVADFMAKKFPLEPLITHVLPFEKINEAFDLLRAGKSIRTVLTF
UniProt P76342, sequence (whole entry, looked up): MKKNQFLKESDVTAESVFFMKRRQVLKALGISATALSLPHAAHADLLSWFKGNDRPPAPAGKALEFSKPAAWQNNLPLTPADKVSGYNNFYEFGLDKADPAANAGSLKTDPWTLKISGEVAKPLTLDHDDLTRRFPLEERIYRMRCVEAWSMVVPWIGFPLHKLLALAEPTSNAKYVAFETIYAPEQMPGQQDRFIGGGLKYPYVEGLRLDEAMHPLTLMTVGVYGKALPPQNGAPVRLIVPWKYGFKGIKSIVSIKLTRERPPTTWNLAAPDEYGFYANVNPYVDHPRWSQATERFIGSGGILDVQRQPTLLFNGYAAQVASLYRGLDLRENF
UniProt Q9NRK6, sequence (whole entry, looked up): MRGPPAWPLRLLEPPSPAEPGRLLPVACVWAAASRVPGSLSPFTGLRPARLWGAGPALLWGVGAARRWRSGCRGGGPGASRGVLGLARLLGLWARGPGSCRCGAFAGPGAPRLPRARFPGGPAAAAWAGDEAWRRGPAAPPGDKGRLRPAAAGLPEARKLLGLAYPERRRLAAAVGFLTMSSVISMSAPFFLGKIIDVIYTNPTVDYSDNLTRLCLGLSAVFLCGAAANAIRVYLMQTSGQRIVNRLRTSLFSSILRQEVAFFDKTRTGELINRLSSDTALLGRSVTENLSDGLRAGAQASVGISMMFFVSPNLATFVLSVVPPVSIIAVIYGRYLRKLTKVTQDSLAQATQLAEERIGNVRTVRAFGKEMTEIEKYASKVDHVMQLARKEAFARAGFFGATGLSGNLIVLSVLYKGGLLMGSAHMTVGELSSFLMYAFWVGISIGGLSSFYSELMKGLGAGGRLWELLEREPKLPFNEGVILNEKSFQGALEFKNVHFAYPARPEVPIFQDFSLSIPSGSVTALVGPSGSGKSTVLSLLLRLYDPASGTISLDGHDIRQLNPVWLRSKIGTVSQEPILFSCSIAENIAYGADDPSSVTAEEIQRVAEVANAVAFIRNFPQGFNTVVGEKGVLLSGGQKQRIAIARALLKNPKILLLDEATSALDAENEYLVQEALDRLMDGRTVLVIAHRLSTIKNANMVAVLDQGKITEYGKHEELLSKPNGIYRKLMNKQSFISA
UniProt P19337, sequence (whole entry, looked up): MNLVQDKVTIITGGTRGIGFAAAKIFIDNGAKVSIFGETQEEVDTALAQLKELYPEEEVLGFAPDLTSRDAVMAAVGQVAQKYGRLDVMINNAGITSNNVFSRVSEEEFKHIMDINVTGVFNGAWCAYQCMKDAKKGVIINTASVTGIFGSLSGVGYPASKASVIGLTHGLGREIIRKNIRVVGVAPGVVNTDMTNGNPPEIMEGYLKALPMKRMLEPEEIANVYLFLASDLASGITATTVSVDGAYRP
UniProt P10724, sequence (whole entry, looked up): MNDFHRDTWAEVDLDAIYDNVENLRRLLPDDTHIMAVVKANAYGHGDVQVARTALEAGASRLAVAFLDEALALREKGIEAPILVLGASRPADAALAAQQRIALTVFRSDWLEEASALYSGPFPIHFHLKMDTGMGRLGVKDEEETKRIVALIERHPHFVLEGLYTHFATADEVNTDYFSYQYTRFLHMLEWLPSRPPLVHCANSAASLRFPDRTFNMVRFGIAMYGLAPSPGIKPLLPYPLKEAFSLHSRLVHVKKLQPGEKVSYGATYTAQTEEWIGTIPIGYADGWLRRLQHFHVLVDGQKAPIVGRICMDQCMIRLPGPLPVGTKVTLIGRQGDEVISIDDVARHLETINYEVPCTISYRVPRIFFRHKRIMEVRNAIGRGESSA

Substance | substrate | sample | pH | temperature | notes | with | Km
B1 (enzyme) | CCCCCCCC/C=C\CCCCCCCC(=O)SCCNC(=O)CCNC(=O)[C@H](O)C(C)(C)COP(=O)(O)OP(=O)(O)OC[C@H]1O[C@@H](n2cnc3c(N)ncnc32)[C@H](O)[C@@H]1OP(=O)(O)O | – | pH 7.4 | 37 °C | apparent, not purified | – | 36.6 µM
B2 (onr) | CC(C)=CCC/C(C)=C/C=O | – | pH 7 | 25 °C | apparent, anaerobic | NADPH 100 µM | 26.7 µM
B3 (YeiR) | Nc1nc2c(ncn2[C@@H]2O[C@H](COP(=O)(O)OP(=O)(O)OP(=O)(O)O)[C@@H](O)[C@H]2O)c(=O)[nH]1 | – | pH 7.5 | 37 °C | apo, anaerobic | – | 220 µM
B4 (Msh2/Msh3) | Nc1ncnc2c1ncn2[C@@H]1O[C@H](COP(=O)(O)OP(=O)(O)OP(=O)(O)O)[C@@H](O)[C@H]1O | – | pH 7.5 | 30 °C | no DNA | magnesium acetate 2 mM | 842 µM
BaiA2 (Clostridium scindens, UniProt P19337) | C[C@H](CCC(=O)SCCNC(=O)CCNC(=O)[C@H](O)C(C)(C)COP(=O)(O)OP(=O)(O)OC[C@H]1O[C@@H](n2cnc3c(N)ncnc32)[C@H](O)[C@@H]1OP(=O)(O)O)[C@H]1CC[C@H]2[C@@H]3CC[C@@H]4C[C@H](O)CC[C@]4(C)[C@H]3C[C@H](O)[C@]12C | – | pH 8.7 | 37 °C | – | NAD+ | 17 µM
B5 (Nudt8) | CCCC(=O)SCCNC(=O)CCNC(=O)[C@H](O)C(C)(C)COP(=O)(O)OP(=O)(O)OC[C@H]1O[C@@H](n2cnc3c(N)ncnc32)[C@H](O)[C@@H]1OP(=O)(O)O | – | pH 8.5 | – | – | 2 mM Mn2+ | 224 µM
B6 (cyc1 F332A) | CC(C)=CCC/C(C)=C/CC/C(C)=C/CO[P@@](=O)(O)OP(=O)(O)O | – | pH 6.5 | 30 °C | – | MgCl2 10 mM | 0.36 µM
Alanine racemase (Geobacillus stearothermophilus, UniProt P10724) | C[C@H](N)C(=O)O | – | pH 8.9 | 25 °C | L to D direction | – | 5400 µM
ABCB10 (Homo sapiens, UniProt Q9NRK6) | Nc1ncnc2c1ncn2[C@@H]1O[C@H](COP(=O)(O)OP(=O)(O)OP(=O)(O)O)[C@@H](O)[C@H]1O | lipid nanodiscs | pH 7.5 | 37 °C | – | MgCl2 10 mM | 750 µM
enzyme (Rattus norvegicus, UniProt P06757) | CCC(O)CC | – | pH 7.3 | 37 °C | – | – | 4800 µM
B7 (anthranilate synthase) | NC(=O)CC[C@H](N)C(=O)O | – | pH 7.5 | 30 °C | – | chorismate saturating; MgCl2 12.5 mM | 840 µM
enzyme (Oryctolagus cuniculus, UniProt A0A5F9DQ59) | O=c1oc2c(O)c(O)ccc2cc1-c1nc2ccccc2s1 | – | pH 7.4 | 37 °C | – | – | 1.4 µM
MsrP (Escherichia coli, UniProt P76342) | C[S@@+]([O-])CC[C@H](N)C(=O)O | – | pH 7 | 30 °C | – | benzyl viologen 0.4 mM | 25700 µM

A few entries again:
Substance | substrate | sample | pH | temperature | notes | with | Km
B6 (cyc1 F332A) | CC(C)=CCC/C(C)=C/CC/C(C)=C/CO[P@@](=O)(O)OP(=O)(O)O | – | pH 6.5 | 30 °C | – | MgCl2 10 mM | 0.36 µM
Alanine racemase (Geobacillus stearothermophilus, UniProt P10724) | C[C@H](N)C(=O)O | – | pH 8.9 | 25 °C | L to D direction | – | 5400 µM
